Measured values of several laboratories.
Numbered parts are unrelated; each lists some results of a single study.

Series 1 — method: universal PBM; form: double-stranded DNA, one strand shown; matrix: in vitro; tested at: 600 nM; direction: higher = stronger binding
Target: Sal-like protein 4, full length isoform A (SALL4, Homo sapiens, UniProt Q9UJQ4, residues 1-1053)
UniProt Q9UJQ4, sequence (whole entry, looked up): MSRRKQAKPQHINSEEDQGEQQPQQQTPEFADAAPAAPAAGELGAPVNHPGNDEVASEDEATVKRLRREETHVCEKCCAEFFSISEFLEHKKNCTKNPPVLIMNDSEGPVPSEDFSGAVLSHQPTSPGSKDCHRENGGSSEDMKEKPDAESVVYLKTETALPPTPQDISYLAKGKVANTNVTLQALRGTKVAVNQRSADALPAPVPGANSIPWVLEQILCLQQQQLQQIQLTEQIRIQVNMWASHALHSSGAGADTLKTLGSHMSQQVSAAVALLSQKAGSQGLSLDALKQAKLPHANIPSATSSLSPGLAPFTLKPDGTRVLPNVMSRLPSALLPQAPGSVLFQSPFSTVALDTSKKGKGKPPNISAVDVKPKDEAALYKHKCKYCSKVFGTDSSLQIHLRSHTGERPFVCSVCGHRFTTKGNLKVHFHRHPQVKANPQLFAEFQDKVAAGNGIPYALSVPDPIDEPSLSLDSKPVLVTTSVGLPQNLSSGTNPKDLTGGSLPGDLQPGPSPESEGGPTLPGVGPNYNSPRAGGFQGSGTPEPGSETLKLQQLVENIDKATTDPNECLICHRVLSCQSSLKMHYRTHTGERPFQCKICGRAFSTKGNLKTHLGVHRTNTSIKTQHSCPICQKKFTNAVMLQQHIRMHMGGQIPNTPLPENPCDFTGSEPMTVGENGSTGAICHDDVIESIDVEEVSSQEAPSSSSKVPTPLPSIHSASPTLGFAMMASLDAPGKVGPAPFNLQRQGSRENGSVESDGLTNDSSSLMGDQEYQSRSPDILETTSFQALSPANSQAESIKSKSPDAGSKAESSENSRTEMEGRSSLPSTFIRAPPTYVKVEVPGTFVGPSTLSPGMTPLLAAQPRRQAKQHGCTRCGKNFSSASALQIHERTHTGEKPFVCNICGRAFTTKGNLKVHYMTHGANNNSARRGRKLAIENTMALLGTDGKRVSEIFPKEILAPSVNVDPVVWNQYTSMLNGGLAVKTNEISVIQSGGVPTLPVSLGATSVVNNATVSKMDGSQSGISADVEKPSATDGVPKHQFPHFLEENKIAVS
Notes: 8-mer, flanks averaged, mean of replicates
Sequence | E-score
CGAACACG | -0.0206
AGGTCACA | -0.0785
GGCGAGTA | -0.183
TAGCGAAA | 0.196
CCAAGCAC | -0.0878
AAGATTGC | 0.0658
CGTCCCTA | -0.0767
ATGCACTC | 0.000655
AAACGGGG | -0.197
TGTACGAA | 0.207

Series 2 — method: RNA Bind-n-Seq; form: RNA; matrix: in vitro; tested at: 365 nM; relative to: no-protein control; direction: higher = stronger binding
Target: RNA binding protein fox-1 homolog 2, RRM domain, GST-SBP tag (RBFOX2, Homo sapiens, UniProt O43251-10, residues 100-194)
Notes: natural RNA segment, single round, ends assumed
Shared flanks, not repeated: GGGAGUUCUACAGUCCGACGAUC … UGGAAUUCUCGGGUGCCAA
Target sequence (chain): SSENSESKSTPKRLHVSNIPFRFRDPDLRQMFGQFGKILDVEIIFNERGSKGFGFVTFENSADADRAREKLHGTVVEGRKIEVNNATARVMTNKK
Sequence | RBNS enrichment (R)
CCCGUGCGUGGCCAUACCCUGCCUCCCUCUCUGGCCCUGGGAGGGCAGCUUGGAGCCCAGGUAGGGGGCAGAGCUGUCCUCAGCUGCACUGCGGCCUGGUGGCAGUGUGG | 0.92
GAAUUGAUAGAAAUGCUUAAGCAGUUGCCUUUUUUAAACAUCAAUACCAGACCUCUGAAUUUGUAUUUUUUCUUGUUAACCAUUUUAAUUUGUUGGCUGGAUGUAUAAAG | 0.502
UGCUGACUGUCAGGAGCAAAACUUGAAGGUGUGGCACCGCAGGACUGGAAGAGAGUGGAACACCUUGGGUCCUGCCUGUUCAGGGUACUGAGGCCAAGAUGAGAAGUGAC | 0.729
UUUAAGAAAGUUGGAAAGGUCUCUCCUCCCAAGGACAGUGGCUGGAAGAGUUGGGGCACAGCCAGUUCUGAAUGUUGGUGGAGGGUGUAGUGGCUUUUUGGCUCAGCAUC | 1.06
UCUCAUCCCUAUCUCCAGUCAAAGAUGGGAUUGCUUAAUCCAACUCUGGAGAGGGACCAAGUCUUUUCUGCCCACAUCUCACACAAUUGAGGUGUCUGAACAAGCUUGGG | 0.242
CUCAUCCAGACAAGCUGACCUUUGAGUUAAUUUCAGCACAACUCAUUCUUCAGUGCCUCAUGACUGAAAACAAAAAACAAAAAAACGAAAGCAUCUUCACAAUGAAGCUU | 0.428
UUCUUUCCUCCCACUUCCACCCCAACAUAGAGUAGUAUUUGCUUUUUAGUCCAUUUUGUUUUCAAUACGAUUUAAUAUCGAUCAGAGUAAUUCUUUUGUACAUUGAAAUG | 0.597
GGGCAACUAUUAUUAUCCCUAUUUUACAAAACUGAGGCUUAGUGAGGUUCAGCCACAUGCCUAGACUUAUAUACUAGUUAGUGGUGCAGCCAGGGAGAGGACUCAGAUUU | 0.282
CUAGGAUGCUGUCAGCCUGAGAGUGAAAGUGGGCACUCAUUUCUCCUGGUUUUUGAAGAGCCUGUUAAGUACACUUGGCUAUUUCCUCCUUGGAGUCCUGUUCUUGCUCA | 0.615
GUUACAGGGCUAAGUUAAAGCCAGACUUUAAAGUUCUGUCACGGUGGUAAGGAAAGAAACAGGAGGUGCUAGAGGAACCAAGAGUUCUGGUCAUUAACUCAGUCAUGCCG | 0.7
GUUCCAUGAGCUAUUCCUCUUUGGUUUGGCUUUUUGAUAUGAUUAAAAUUAUUUUUUAUUCCUUUUUCUACUGUGUCUUAAACACCAAUUCCUGAUAGUCCAAGGAACCA | 0.452
UUUAAAAAGGGGAUGCCUGUCAGUAAAUCCCCUGUGCAUUGACUAGAACUGGGGGGCUGCGCCCGCUCCCUCCUUAAUCCUAGAUGAUUUGCUCAUGAAAUAGAGGUGGG | 0.973

Series 3 — method: protein-binding microarray; form: double-stranded DNA, one strand shown; matrix: in vitro; tested at: 250 nM; notes: 60-bp whole probe; with: salmon DNA 0.4 mg/ml; relative to: random background probes; direction: higher = stronger binding; shared flanks, not repeated: GCCTAGCAC … GTCTTGATTCGCTTGACGCTGCTG
Target: Interferon regulatory factor 5, full length, phosphomimetic (IRF5, Homo sapiens, UniProt Q13568-2, residues 1-514, K96S/S451D/S453D/S456D/S462D)
Sequence | log fluorescence
TCATTTTTTTTCCTAATACTGTGCTAG | 1.47 z-score
TTAGGTTCCGGTTTCGGTTCGTGCTAG | 9.03 z-score
TTAGGACTGGACACTTGGTTAGTGCTA | -0.124 z-score
TTAGAGATCAGTCTCGATTAGTGCTAG | 0.954 z-score
TCAAGTTTCTTTTCTTTACTGTGCTAG | 2.48 z-score
ACCCTTGAGTGGTCCAGAGTGTGCTAG | -0.715 z-score
TTTTTGTTGTTTTTTGGTTTGTGCTAG | 3.89 z-score
TTAGCTATCAGTCTCGATTAGTGCTAG | 2.91 z-score
GACGATTTCGGTTCCGGGACGTGCTAG | 6.86 z-score

Mixed results
Molecule | target | test | test system | setting | how to read | quantity | result
PhoQ, residues 284 288 289 292 302 303 ASTSDA | PhoP, residues 12 14 15 18 19 TPLRH (Escherichia coli, UniProt P23836) | Sort-seq, measured: YFP reporter | E. coli | PhoQ-PhoP variant library, with: 10 µM Mg2+ | relative to: high Mg2+ state, higher = stronger signaling | fold induction | 1.54

Some of these lines once more (series 2):
Sequence | RBNS enrichment (R)
UCUCAUCCCUAUCUCCAGUCAAAGAUGGGAUUGCUUAAUCCAACUCUGGAGAGGGACCAAGUCUUUUCUGCCCACAUCUCACACAAUUGAGGUGUCUGAACAAGCUUGGG | 0.242
CUCAUCCAGACAAGCUGACCUUUGAGUUAAUUUCAGCACAACUCAUUCUUCAGUGCCUCAUGACUGAAAACAAAAAACAAAAAAACGAAAGCAUCUUCACAAUGAAGCUU | 0.428
